Results from different studies.
Lines come from different studies, so protocols differ. ± marks the error that the study gave.
B1: enzyme A497K (Streptomyces platensis, UniProt A0A0A0V031); chain MQHTTIGDVLREHRRSHPGRTALVDGPVRLTWPELDDRVNRLAGSLAASGIGRGDRIMWLGQNSFRVYELIAAAGKLGAMVCVGYWRWAPPEMEFALRDFDPHLVVWQHQEIHETVARTREALGSDDTARWLRHDSAPQDPDGYEAFLAAGGLADPDLDIDPDSPVLVLYTAAMSGRQCGSLLSHTNLIAMATAAAWLGDIDHTTAFLNSGPMFHIGNHQFWGMPTLLMAGKNVIVRRVVAEEVRDLLVAEECTHAFLMPPTVAEIVRLNRDTGHDLSRLRATVAPHLWEGMATTDTSRFTRSGAAAGRGYGQTELSGFAVTAAYGGPAAGNAGRPGPGLTVRVLDTAGRECAVGEAGEICARGTVVHRGYWNRDEVNAHRFRSGWWHTTDLGRREPDGSLTFLGTTTRMLKSAAENIFPAEVENCIEQHPAVREAAVIGVPNTRWAQDVKAVVVLEPDAGVSEQEIIDHCRPRIASYKKPKSVAFAAALPRTVSGKRDYDALDKEYGGGGYPGAATLGPGR
B2: SULT2A1 (Homo sapiens, UniProt Q06520); chain MSDDFLWFEGIAFPTMGFRSETLRKVRDEFVIRDEDVIILTYPKSGTNWLAEILCLMHSKGDAKWIQSVPIWERSPWVESEIGYTALSETESPRLFSSHLPIQLFPKSFFSSKAKVIYLMRNPRDVLVSGYFFWKNMKFIKKPKSWEEYFEWFCQGTVLYGSWFDHIHGWMPMREEKNFLLLSYEELKQDTGRTIEKICQFLGKTLEPEELNLILKNSSFQSMKENKMSNYSLLSVDYVVDKAQLLRKGVSGDWKNHFTVAQAEDFDKLFQEKMADLPRELFPWE
UniProt P21729, sequence (whole entry, looked up): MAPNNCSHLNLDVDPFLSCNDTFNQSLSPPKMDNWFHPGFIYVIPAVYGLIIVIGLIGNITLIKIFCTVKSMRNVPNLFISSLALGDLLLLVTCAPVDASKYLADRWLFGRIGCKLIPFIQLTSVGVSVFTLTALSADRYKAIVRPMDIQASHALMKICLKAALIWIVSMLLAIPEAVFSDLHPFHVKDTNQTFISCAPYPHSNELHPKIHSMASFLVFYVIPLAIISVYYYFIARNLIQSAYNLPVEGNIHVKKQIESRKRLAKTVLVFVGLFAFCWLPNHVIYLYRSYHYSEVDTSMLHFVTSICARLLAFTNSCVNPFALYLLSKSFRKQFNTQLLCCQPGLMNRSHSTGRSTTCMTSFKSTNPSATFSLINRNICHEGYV

| Substance | tested on | assay | test system | setting | measurement | value |
| --- | --- | --- | --- | --- | --- | --- |
| CCCNC(=O)[C@H](CC(C)C)NC(=O)[C@H](Cc1c[nH]cn1)NC(=O)CNC(=O)[C@@H](NC(=O)[C@H](C)NC(=O)[C@H](Cc1c[nH]c2ccccc12)NC(=O)[C@H](CCC(N)=O)NC(=O)[C@@H](Cc1ccccc1)NC(=O)CCCCCNC(=O)CN1CCN(CC(=O)O)CCN(CC(=O)O)CCN(CC(=O)O)CC1)C(C)C [indium-111 labelled] | Gastrin-releasing peptide receptor (Mus musculus, UniProt P21729) | – | CF-1 mice, large intestine | intravenous, 0.185 MBq, 1 h | tissue uptake | 0.44 ± 0.31 %ID/g |
| N=C(N)NCCC[C@@H]1NC(=O)[C@H](CCCCNC(=O)CC[C@H](NC(=O)CCOCCOCCOCCOCCNC(=O)CC[C@H](NC(=O)CN2CCN(CC(=O)O)CCN(CC(=O)O)CCN(CC(=O)O)CC2)C(=O)NCCOCCOCCOCCOCCC(=O)N[C@@H](CCC(=O)NCCCC[C@@H]2NC(=O)[C@@H](Cc3ccccc3)NC(=O)[C@H](CC(=O)O)NC(=O)CNC(=O)[C@H](CCCNC(=N)N)NC2=O)C(=O)NCCCC[C@@H]2NC(=O)[C@@H](Cc3ccccc3)NC(=O)[C@H](CC(=O)O)NC(=O)CNC(=O)[C@H](CCCNC(=N)N)NC2=O)C(=O)NCCCC[C@@H]2NC(=O)[C@@H](Cc3ccccc3)NC(=O)[C@H](CC(=O)O)NC(=O)CNC(=O)[C@H](CCCNC(=N)N)NC2=O)NC(=O)[C@@H](Cc2ccccc2)NC(=O)[C@H](CC(=O)O)NC(=O)CNC1=O [indium-111 labelled] | – | – | female athymic nude mice, heart | intravenous, 3 µCi, 24 h, U-87 MG glioma xenograft | tissue uptake | 0.31 ± 0.12 %ID/g |
| C=Cc1c(C)c2cc3nc(c4c5[nH]c(cc6nc(cc1[nH]2)C(C)=C6CC)c(C)c5C(=O)C4)[C@@H](CCC(=O)NCC(=O)N1CCC[C@H]1C(=O)N[C@@H](CC(C)C)C(=O)NCC(=O)N[C@@H](Cc1ccccc1)C(=O)N[C@@H](CCCNC(=N)N)C(=O)N[C@H](C(=O)NCC(=O)N[C@@H](CCCCN)C(N)=O)C(C)C)[C@@H]3C | OA patient synovial fibroblasts | flow cytometry, measured: cellular uptake | – | 1 µM, 6 h | fluorescent cells | 80% |
| CC(C)C[C@H](NC(=O)[C@H](CO)NC(=O)[C@H](Cc1c[nH]cn1)NC(=O)CCc1cn(CC(=O)OCC(=O)[C@@]2(O)[C@H](C)C[C@H]3[C@@H]4CCC5=CC(=O)C=C[C@]5(C)[C@@]4(F)[C@@H](O)C[C@@]32C)nn1)C(=O)NCC(=O)N[C@@H](CCCCN)C(=O)N[C@@H](Cc1c[nH]c2ccccc12)C(=O)N[C@@H](CC(C)C)C(=O)NCC(=O)N[C@@H](Cc1c[nH]cn1)C(=O)N1CCC[C@H]1C(=O)N[C@@H](CC(=O)O)C(=O)N[C@@H](CCCCN)C(=O)N[C@@H](Cc1ccccc1)C(=O)O | none | HPLC-UV | acetate buffer | 1 mg/mL, pH 5.5, 37 °C | time to complete dexamethasone release | ~50 h |
| CCCC[C@H](NC(=O)CNC(=O)CNC(=O)c1ccc(NN)nc1)C(=O)N[C@H]1CC(=O)NCCCC[C@@H](C(N)=O)NC(=O)[C@H](Cc2c[nH]c3ccccc23)NC(=O)[C@H](CCCNC(=N)N)NC(=O)[C@@H](Cc2ccccc2)NC(=O)[C@H](Cc2c[nH]cn2)NC1=O [technetium-99m labelled] | – | – | C57 mouse, B16/F1 melanoma, pancreas | 2 h, with: NDP-MSH 6.07 nmol blockade | uptake | 0.05 ± 0.04 %ID/g |
| N=C(N)NCCC[C@@H]1NC(=O)[C@H](CCCCNC(=O)CCOCCOCCOCCOCCNC(=O)CC[C@H](NC(=O)CCOCCOCCOCCOCCNC(=O)CC[C@H](NC(=O)CN2CCN(CC(=O)O)CCN(CC(=O)O)CCN(CC(=O)O)CC2)C(=O)NCCOCCOCCOCCOCCC(=O)N[C@@H](CCC(=O)NCCOCCOCCOCCOCCC(=O)NCCCC[C@@H]2NC(=O)[C@@H](Cc3ccccc3)NC(=O)[C@H](CC(=O)O)NC(=O)CNC(=O)[C@H](CCCNC(=N)N)NC2=O)C(=O)NCCOCCOCCOCCOCCC(=O)NCCCC[C@@H]2NC(=O)[C@@H](Cc3ccccc3)NC(=O)[C@H](CC(=O)O)NC(=O)CNC(=O)[C@H](CCCNC(=N)N)NC2=O)C(=O)NCCOCCOCCOCCOCCC(=O)NCCCC[C@@H]2NC(=O)[C@@H](Cc3ccccc3)NC(=O)[C@H](CC(=O)O)NC(=O)CNC(=O)[C@H](CCCNC(=N)N)NC2=O)NC(=O)[C@@H](Cc2ccccc2)NC(=O)[C@H](CC(=O)O)NC(=O)CNC1=O [indium-111 labelled] | – | – | female athymic nude mice, intestine | intravenous, 3 µCi, 72 h, U-87 MG glioma xenograft | tissue uptake | 5.74 ± 1.47 %ID/g |
| B1 (enzyme A497K) | C[C@@]12CCC[C@@](C)(C(=O)OP(=O)(O)OC[C@H]3O[C@@H](n4cnc5c(N)ncnc54)[C@H](O)[C@@H]3O)[C@H]1C[C@@H](O)[C@]13C[C@H]4C[C@H](O[C@@]4(C)C1)[C@@H]23 | steady-state kinetics | – | pH 7.8, 25 °C | Vmax | 5.34 µmol/min |
| N=C(N)NCCC[C@@H]1NC(=O)[C@H](CCCCNC(=O)CNC(=O)CNC(=O)CNC(=O)CC[C@H](NC(=O)CCOCCOCCOCCOCCNC(=O)CC[C@H](NC(=O)CN2CCN(CC(=O)O)CCN(CC(=O)O)CCN(CC(=O)O)CC2)C(=O)NCCOCCOCCOCCOCCC(=O)N[C@@H](CCC(=O)NCC(=O)NCC(=O)NCC(=O)NCCCC[C@@H]2NC(=O)[C@@H](Cc3ccccc3)NC(=O)[C@H](CC(=O)O)NC(=O)CNC(=O)[C@H](CCCNC(=N)N)NC2=O)C(=O)NCC(=O)NCC(=O)NCC(=O)NCCCC[C@@H]2NC(=O)[C@@H](Cc3ccccc3)NC(=O)[C@H](CC(=O)O)NC(=O)CNC(=O)[C@H](CCCNC(=N)N)NC2=O)C(=O)NCC(=O)NCC(=O)NCC(=O)NCCCC[C@@H]2NC(=O)[C@@H](Cc3ccccc3)NC(=O)[C@H](CC(=O)O)NC(=O)CNC(=O)[C@H](CCCNC(=N)N)NC2=O)NC(=O)[C@@H](Cc2ccccc2)NC(=O)[C@H](CC(=O)O)NC(=O)CNC1=O [indium-111 labelled] | – | – | athymic nude mice, female, U-87 MG glioma xenograft, U-87 MG tumour | intravenous, 3 µCi, 4 h | tissue uptake | 9.5 ± 2.13 %ID/g |
| CC(C)C[C@H](NC(=O)[C@@H]1CCCN1C(=O)[C@H](CCCCN)NC(=O)[C@@H](N)CO)C(=O)N1CCC[C@H]1C(=O)N[C@@H](CCC(=O)O)C(=O)N[C@H](C(=O)N[C@H](C(=O)N[C@@H](CC(=O)O)C(=O)N[C@@H](CCC(=O)O)C(=O)N[C@@H](Cc1ccc(O)cc1)C(=O)N[C@@H](Cc1cn(CCOCCOCCOCCNC(=O)CCc2ccc(O)c(CN(CCN(CC(=O)O)Cc3cc(CCC(=O)NCCCC[C@H](NC(=O)N[C@@H](CCC(=O)O)C(=O)O)C(=O)O)ccc3O)CC(=O)O)c2)nn1)C(=O)O)[C@@H](C)O)C(C)C [gallium-68 labelled] | – | – | NMRI nu/nu mice, LNCaP tumour, pancreas | 10 MBq, high molar activity | standardized uptake value | 0.23 g/g |
| B2 (SULT2A1) | C[C@]12CC[C@H](O)CC1CCC1C2[C@H](O)C(=O)[C@]2(C)[C@@H](c3ccc(=O)oc3)CC[C@]12O | steady-state kinetics | – | pH 7.4, 37 °C, sulfation by SULT2A1, not purified | Vmax | 0.003 µmol/min/mg |
